Measured values of several laboratories.
Each numbered part is a random draw from the data of one study; scales do not carry over between parts.

Block 1
Target: Ras GTPase-activating protein-binding protein 1, C-terminal RGG region (G3BP1, Homo sapiens, UniProt Q13283)
Chain of UniProt Q13283 (whole entry, looked up): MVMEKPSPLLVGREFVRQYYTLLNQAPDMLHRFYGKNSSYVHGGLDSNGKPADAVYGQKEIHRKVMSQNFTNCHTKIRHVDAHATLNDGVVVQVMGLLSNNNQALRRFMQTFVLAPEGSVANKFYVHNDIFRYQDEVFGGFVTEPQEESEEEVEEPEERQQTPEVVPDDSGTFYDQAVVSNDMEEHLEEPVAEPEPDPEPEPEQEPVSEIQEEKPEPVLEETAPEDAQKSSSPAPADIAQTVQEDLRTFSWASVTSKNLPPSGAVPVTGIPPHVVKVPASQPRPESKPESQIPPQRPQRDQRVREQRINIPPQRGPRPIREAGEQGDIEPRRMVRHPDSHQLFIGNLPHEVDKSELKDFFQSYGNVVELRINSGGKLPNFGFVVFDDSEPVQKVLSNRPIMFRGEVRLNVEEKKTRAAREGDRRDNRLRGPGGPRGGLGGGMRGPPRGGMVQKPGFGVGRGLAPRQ
Method: RNA Bind-n-Seq
Form: RNA
Medium: in vitro
Concentration: 1 µM
Setting: whole 134-nt RNA, ends assumed
Together with: 150 mM KCl
Baseline: input library
Reading: higher = stronger binding
Quantity: log2 enrichment
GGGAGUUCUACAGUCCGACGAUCUGGUUUUGGUGCCUGGCAUCGAAGAUGGUGUGUUCUUUCUGGAAACUGUAUAUCUUAUUGGACUUAUCCAGAUGAUGAGAAACGCAAGGUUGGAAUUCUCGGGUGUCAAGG: -1.19
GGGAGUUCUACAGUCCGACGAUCGUCCUGUGCUACACAUCGUAUGUACCGAAUCGGAAAAAGGUUUUUUUGGUUUUUUUGGAAAGUAUUAUGUUACGCCGUUCGGAUCUGCACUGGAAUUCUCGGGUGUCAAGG: -1.98
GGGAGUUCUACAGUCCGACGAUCUGGUUAGUCAACUACUUUGGUUCCUUAUCAGUAGAAGACUCCCUAGAAUGUCUCAGAGCCAUGCUGUCUGCCAACAUCCGUCAGAAUCUGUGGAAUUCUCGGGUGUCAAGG: -0.579
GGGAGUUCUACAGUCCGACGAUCCCUGUGCUACACAUCGUAUGUACCGAAUCGGGAAAAAAAGGGAAAAAAAGGGAAAAAGGGAAAGUAUUAUGUUACGCCGUUCGGAUCUGCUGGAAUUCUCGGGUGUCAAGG: -1.78
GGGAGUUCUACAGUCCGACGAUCCCUGUGCUACACAUCGUAUGUACCGAAUCGGAAAAAAGGGGAAAAAAGGGGAAAAAAGGGGAAAGUAUUAUGUUACGCCGUUCGGAUCUGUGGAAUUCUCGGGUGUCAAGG: -1.32
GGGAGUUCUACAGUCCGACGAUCACCAUGCAGGUGGGCAUCUUUGGGAGGUGGGGCAAGGGGGGGAUAGGGAGGGGGGUAACACUUUGGGAACAGGUGGUCCCAGGUCGUUUCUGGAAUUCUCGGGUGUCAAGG: -1.32
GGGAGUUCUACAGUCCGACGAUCCCUGUGCUACACAUCGUAUGUACCGAAUCGGGGAAAAAAAGGGGAAAAAGGGGUUUGGGGAAAGUAUUAUGUUACGCCGUUCGGAUCUGCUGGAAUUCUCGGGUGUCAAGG: 0.915
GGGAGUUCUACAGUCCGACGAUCUAACUUUAGAGGAGGAUCUGAUGGAUAUGGCAGUGGACGUGGAUUUGGGGAUGGCUAUAAUGGGAAUGGAGGAGGACCUGGAGGUGGCAAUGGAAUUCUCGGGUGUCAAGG: -0.92
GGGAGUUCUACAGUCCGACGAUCUCCUGUGCUACACAUCGUAUGUACCGAAUCGGAAAAAAAGGGAAAAAAAGGAAAAAAAGGAAAGUAUUAUGUUACGCCGUUCGGAUCUGCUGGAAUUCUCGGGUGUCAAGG: -1.07

Block 2
Target: Sal-like protein 4, full length isoform A (SALL4, Homo sapiens, UniProt Q9UJQ4, residues 1-1053)
Chain of UniProt Q9UJQ4 (whole entry, looked up): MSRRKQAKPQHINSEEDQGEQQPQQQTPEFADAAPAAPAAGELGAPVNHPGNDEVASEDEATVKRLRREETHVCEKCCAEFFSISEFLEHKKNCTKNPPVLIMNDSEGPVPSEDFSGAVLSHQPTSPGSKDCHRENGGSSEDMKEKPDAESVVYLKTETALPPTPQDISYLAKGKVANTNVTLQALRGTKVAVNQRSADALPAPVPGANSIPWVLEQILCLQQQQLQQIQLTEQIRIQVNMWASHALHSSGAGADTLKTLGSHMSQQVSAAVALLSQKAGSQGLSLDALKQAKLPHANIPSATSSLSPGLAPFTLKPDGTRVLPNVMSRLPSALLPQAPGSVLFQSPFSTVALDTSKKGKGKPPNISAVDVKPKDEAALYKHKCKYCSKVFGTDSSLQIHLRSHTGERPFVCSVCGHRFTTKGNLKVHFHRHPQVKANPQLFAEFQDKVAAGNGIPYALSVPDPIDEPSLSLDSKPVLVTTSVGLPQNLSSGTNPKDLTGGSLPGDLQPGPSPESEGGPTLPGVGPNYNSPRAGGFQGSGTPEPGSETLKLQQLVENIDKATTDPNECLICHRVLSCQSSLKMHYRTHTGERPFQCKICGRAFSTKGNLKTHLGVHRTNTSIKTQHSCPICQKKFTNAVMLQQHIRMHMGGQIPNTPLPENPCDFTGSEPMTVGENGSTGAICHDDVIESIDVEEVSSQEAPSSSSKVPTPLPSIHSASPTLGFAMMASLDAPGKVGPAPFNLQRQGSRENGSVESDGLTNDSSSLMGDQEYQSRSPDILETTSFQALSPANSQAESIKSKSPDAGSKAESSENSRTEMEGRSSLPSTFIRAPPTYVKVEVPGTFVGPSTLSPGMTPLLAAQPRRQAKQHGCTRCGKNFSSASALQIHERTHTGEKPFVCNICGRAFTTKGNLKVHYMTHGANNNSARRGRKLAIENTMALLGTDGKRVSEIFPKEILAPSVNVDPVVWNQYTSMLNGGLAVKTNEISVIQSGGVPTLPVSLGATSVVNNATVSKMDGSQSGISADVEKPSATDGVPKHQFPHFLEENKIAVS
Method: universal PBM
Form: double-stranded DNA, one strand shown
Medium: in vitro
Concentration: 600 nM
Setting: 8-mer, flanks averaged, mean of replicates
Reading: higher = stronger binding
Quantity: E-score
ACGAATAG: 0.0587
GTTCCAAC: -0.0299
GCATCACA: 0.00643
CATTTCCC: 0.0391
ACTTCAAT: 0.236
TCTTACAA: 0.137
CGCGCCCC: -0.339
GTCGAAGA: -0.0306
AATTCCGA: 0.0959
AGAACAAT: 0.288
CGACCGCC: -0.294
ATTGAACG: 0.226
TGAGCTAA: 0.114
ACCACTAT: 0.141
AATACGTA: 0.254
AAAAGTTC: 0.223
TCTCGTAA: 0.1
AAGTTGAG: -0.00954
CACTGGAA: -0.0423
CAGTGACA: 0.0233
CTATTCCA: 0.151
ATTGCGAG: 0.131
CAGATTCC: -0.233
ATTTAACA: 0.218
ATCAAAAG: 0.165

Block 3
Target: Interferon regulatory factor 5, full length, phosphomimetic (IRF5, Homo sapiens, UniProt Q13568-2, residues 1-514, K96S/S451D/S453D/S456D/S462D)
Method: protein-binding microarray
Form: double-stranded DNA, one strand shown
Medium: in vitro
Concentration: 250 nM
Setting: 60-bp whole probe
Together with: salmon DNA 0.4 mg/ml
Baseline: random background probes
Reading: higher = stronger binding
Quantity: log fluorescence
All sequences stand within: GCCTAGCAC … GTCTTGATTCGCTTGACGCTGCTG
TACGAACTGAGTATCGAGACGTGCTAG: 1.91 z-score
TTAGAACTGAGACTGGATGAGTGCTAG: -0.151 z-score
TACTGTCTGTTTCCTCTTTCTGTGCTA: 2.04 z-score
GACGGTTCCAGTTTCGGGACGTGCTAG: 5.74 z-score
GAAGGACTGGACTATCGGGACGTGCTA: 0.936 z-score
TTAGCTTCCCTTTTCCTTTAGTGCTAG: 0.717 z-score
TCATGAATGTGTCTTAAACTGTGCTAG: 0.166 z-score
TGCCCTCTAACTTCCCAATGGTGCTAG: -0.216 z-score
GACGATTTCGGGACTGGTGACGTGCTA: 1.65 z-score
TACGGTTCCGGTTTCGGGACGTGCTAG: 5.09 z-score
TGCTGGTTTTGTGGTCTAATGTGCTAG: -0.102 z-score
TTAGAACTTGGGTATCGATTAGTGCTA: 3.97 z-score
GCCGGACTGCTTTTCCTGACGTGCTAG: -0.537 z-score
TTACGACTGGACACTGGGTTAGTGCTA: 0.287 z-score
TTAGGACTGGACAATGGGTTAGTGCTA: -0.351 z-score
CCTCCCTCTCCCGGAGTTCCGTGCTAG: -0.351 z-score
TTTAAAGAACCCACTATCTTGTGCTAG: 0.198 z-score
GACAGTCTCGGTTTCGGGACGTGCTAG: 4.72 z-score
GACGATTTCGGATTTCGAGACGTGCTA: 2.96 z-score

Block 4
Target: Histone acetyltransferase KAT6A, both winged helices, GST fusion (KAT6A, Homo sapiens, UniProt Q92794, residues 1-181)
Method: protein binding microarray
Form: double-stranded DNA, one strand shown
Medium: in vitro
Concentration: not given
Setting: 8-mer, flanks averaged, mean of 2 arrays, mostly near background
Baseline: not given
Reading: higher = stronger binding
Quantity: E-score
Target sequence (chain): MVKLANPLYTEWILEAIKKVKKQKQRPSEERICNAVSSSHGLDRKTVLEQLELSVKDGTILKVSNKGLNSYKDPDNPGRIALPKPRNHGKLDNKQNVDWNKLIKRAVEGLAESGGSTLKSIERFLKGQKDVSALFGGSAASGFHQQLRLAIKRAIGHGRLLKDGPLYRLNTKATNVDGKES
ACCGATCG: 0.14
CGGGAGGA: 0.0357
CCCGTTTA: 0.158
GTATGCCA: -0.221
GCAAGAGA: -0.0341
CGGGGCCC: 0.148
AACATGGT: -0.102
CGGCTTGA: 0.207
AAAACTTA: -0.188
CTGTCATA: -0.0791
CACCATGG: -0.105
CGGTCCCA: 0.0696
AGCCTCAC: -0.25
GCTCTCTA: -0.12
GCCAGCCC: -0.171
CTGGACAC: -0.19
CCTCTGAC: -0.109
CCTCAAGG: -0.241
ATGTTACA: -0.0785
ATTGCTTA: -0.105
AATAGCGG: 0.244
TGAGGCCA: -0.207
ATATACCC: -0.0389
ACAGGAAT: -0.196
AGGGGGGG: -0.328

Some of these lines once more (block 3):
TACGAACTGAGTATCGAGACGTGCTAG: 1.91 z-score
TTAGAACTGAGACTGGATGAGTGCTAG: -0.151 z-score
TACTGTCTGTTTCCTCTTTCTGTGCTA: 2.04 z-score
GACGGTTCCAGTTTCGGGACGTGCTAG: 5.74 z-score
GAAGGACTGGACTATCGGGACGTGCTA: 0.936 z-score
TTAGCTTCCCTTTTCCTTTAGTGCTAG: 0.717 z-score
TCATGAATGTGTCTTAAACTGTGCTAG: 0.166 z-score
TGCCCTCTAACTTCCCAATGGTGCTAG: -0.216 z-score
GACGATTTCGGGACTGGTGACGTGCTA: 1.65 z-score
TACGGTTCCGGTTTCGGGACGTGCTAG: 5.09 z-score
